Experimental data of several laboratories.
A part holds a random share of what one study measured.

Series 1
Target: Histone acetyltransferase KAT6A, winged helix 1, GST fusion (KAT6A, Homo sapiens, UniProt Q92794, residues 1-85)
Method: protein binding microarray
Form: double-stranded DNA, one strand shown
Medium: in vitro
Tested at: not given
Notes: 8-mer, flanks averaged, mean of 2 arrays, mostly near background
Reference: not given
Direction: higher = stronger binding
Quantity: E-score
Construct (chain): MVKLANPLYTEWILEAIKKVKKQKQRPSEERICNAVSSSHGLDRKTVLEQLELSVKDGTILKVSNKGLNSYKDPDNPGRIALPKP
GCACTTCA: -0.0138
AGATGTTC: -0.149
CGGAGACG: 0.294
ATGGCGGG: 0.208
CGTGGTAG: -0.00125
TATCAAAA: -0.109
GCAAAGCC: 0.15
GAACACGC: 0.237
GATTTCAA: -0.0478
CAAGGAAG: -0.151
AACGAAAA: -0.127
ATCCCAGG: -0.212
ATCCCTGG: -0.2
CTCCCGTC: 0.265
TTGATCAA: 0.0381
ATATATAA: -0.157
CTGGCCTA: -0.084
CGCGTACA: 0.276
AGCTACGG: 0.19
CCACCTGG: -0.243
CCACGACC: -0.154
ACTGATAA: -0.156
CGGAGACC: 0.28
TCTAAACA: -0.0727
AACTCATG: -0.116

Series 2
Target: Fragile X messenger ribonucleoprotein 1, C-terminal low-complexity region (Fmr1, Mus musculus, UniProt P35922)
Method: RNA Bind-n-Seq
Form: RNA
Medium: in vitro
Tested at: 200 nM
Notes: whole 134-nt RNA, ends assumed
Together with: 150 mM LiCl
Reference: input library
Direction: higher = stronger binding
Quantity: log2 enrichment
Each molecule: 7-deaza-guanosine replaces G
All sequences stand within: GGGAGUUCUACAGUCCGACGAUC … UGGAAUUCUCGGGUGUCAAGG
CUGUGCUACACAUCGUAUGUACCGAAUCGGGGCCCCCCCGGCCCCCCCGGGCCCCCCCGGGAAAGUAUUAUGUUACGCCGUUCGGAUCUG: 0.0964
CACAGACAACACGCACCCACACAGACACAGAGGGAAGGGUUUGGGAUGGGGACAGGGUGCACAGCAGGGCGGGGUAGGACCCCAGCCCCU: -1.17
CUCAAGUCCUGUGCUACACAUCGUAUGUACCGAAUCGGUUGGGGUUGGGGUUGGAAAGUAUUAUGUUACGCCGUUCGGAUCUGCACUUCC: -0.387
GUCCUGUGCUACACAUCGUAUGUACCGAAUCGGUUUUUGGAAAAAAAGGAAAAAAAGGAAAGUAUUAUGUUACGCCGUUCGGAUCUGCAC: -2.1
UAACUUUAGAGGAGGAUCUGAUGGAUAUGGCAGUGGACGUGGAUUUGGGGAUGGCUAUAAUGGGUAUGUAGGAGGACCUGGAGGUGGCAA: 0.248
AGUCCUGUGCUACACAUCGUAUGUACCGAAUCGGGAGGGUUUUUGGGAAAAAAAGGGAAAGUAUUAUGUUACGCCGUUCGGAUCUGCACU: -1.59
UCCUGUGCUACACAUCGUAUGUACCGAAUCGGGUUUUUUGGGUUUUUUGGGUUUUUUGGAAAGUAUUAUGUUACGCCGUUCGGAUCUGCA: -0.0247
CCUCAAGUCCUGUGCUACACAUCGUAUGUACCGAAUCGGUGGGUGGGGUGGGAAAGUAUUAUGUUACGCCGUUCGGAUCUGCACUUCCAG: -0.559
UCCUGUGCUACACAUCGUAUGUACCGAAUCGGGGUUUUUGGGGUGGGGAAAAAAAGGGGAAAGUAUUAUGUUACGCCGUUCGGAUCUGCA: -1.92
CAGAGACAACACGCACCCACACAGACACAGAGGGAAGGGGUUGGGAUGGGGACAGGGUGCACAGCAGGGCGGGGUAGGACCCCAGCCCCU: 0.936
UGGGAGGUGGAUUUUGUUUAUUUUUUUAGCUCAUUUGCAGGGGUGGGAAUUUUUUUUUAAUAUGUGUCAUGAAUAAAGUUGUUUUUGAAA: 1.45

Series 3
Target: RNA binding protein fox-1 homolog 2, RRM domain, GST-SBP tag (RBFOX2, Homo sapiens, UniProt O43251-10, residues 100-194)
Method: RNA Bind-n-Seq
Form: RNA
Medium: in vitro
Tested at: 365 nM
Notes: natural RNA segment, single round, ends assumed
Reference: no-protein control
Direction: higher = stronger binding
Quantity: RBNS enrichment (R)
All sequences stand within: GGGAGUUCUACAGUCCGACGAUC … UGGAAUUCUCGGGUGCCAA
Residues (chain): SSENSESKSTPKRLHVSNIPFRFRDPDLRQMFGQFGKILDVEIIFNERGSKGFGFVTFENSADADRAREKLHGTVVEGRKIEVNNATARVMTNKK
AAGGACCAUUGGAAAACACAGAUUAUUUUAACGUUAUAAAAUUCACAUCAGGAGCAAAAUCACAGAUAUGAACUUAAUAAAAAUAAUGUUAUGGUUGGAGGUCACCACAA: 0.248
AACUGAAAAGCAGGUGAAAGGAGGAAUAUUUCAGUGUGUUUUUACAUCUGAAUCCAAGGGAUCCAAGUGGCCCAGCAGAAACGGAAUUCUUGUUAAAAUGACUGAUUCUC: 0.28
GCUGGUGCCUAGCCCGGGUGAGUGAGGCUGGCUGUGUUGGCCUGGGUGACUUGUGGUUGUAGAGUUGGCCAUCAUUCUGCACUGUUGAUAGCUGUCUGCUCCAGUUUCUG: 1.21
ACAGUGCGUUCCUGAGACACCCUCUUUGGGAGCACAGGCAGUUAGCUGGAAGAACUCCAAGGAAAAGAAUUUUCCACAAAACUCAAGAAUGUCGAGACUUAACGAAGGCU: 0.24
UAAAGGGGGUGUUAAUCGGUGUAAAUCGCUGUUUGGAUUUCCUGAUUUUAUAACAGGGCGGCUGGUUAAUAUCUCACACAGUUUAAAAAAUCAGCCCCUAAUUUCUCCAU: 0.496
GUCCCAACGUUCUAGCACCCCCCUCUUCUCCUUUCUCUGUCCCCCAUUUUCCAGGGGGUUUAUGGUCAGGGCUCCCCAACCUGAGUUGGGCUACUUCCAAGGGCAGCCAG: 0.679
UAUCAAGCAGUACAUGAAAGUGUAAUAAUAAAAUGUCUAUGUAUCUUUAGUUACAUUCAGAUUUGUAACUUUAUAAACAUGUUUUCUGCCUGAGGUACUUUUUAAGGAGG: 0.332
UUGGGAAACGUUUUAACAUCUGGAGCCUUUGUGGGUGGAAAUAUGUCUCCAGUUACAACUCCGCAGUGGAUGUGAAGAAGCAAAAAAAAAAAAAUCUAUUCAGUCUACUC: 0.477
AGUGUCUGCAGUAGGGGACCCAGAGUCCCAGGCCCCUGGAGUUGUUUUCGGCAGGGGCCUUGUCUCUCACUGCAUUUGGUCAGGGGGGCAUGAAUAAAGGCUACAGGCUC: 0.977
GCUUGCUGGCCAGCACUCCUUGGCUCCCCUGCCGAACCACAGACAGACAGUUCAGAUUACCAGGAUAAUCCCAAGCAGUAUCUCCAGUCUCGGCUGGUAGUGGCCCAGAU: 0.795
CCCACACCCGGGGGGCCUCUGUUCAUAGCGGCACAUGCAUUUCCCCACCGCGUCUUGUCUGCAGCUUCUUGGCCAAUGUAGUAAUGCUUUUAGUAGAGUAAUAGGUAGUA: 1.14
CUCUCACUUAGACUUUGCUGUCCUCUAUGCUAACUAUGUAGAAGCUGGCUUUAGAUUAAAUGACUAUGAAGCACAAUGACAUUCUGUGGACUAAAAGUUUUUUUGUAUUU: 0.837

Series 4
Target: Prothrombin, mature alpha-thrombin (F2, Homo sapiens, UniProt P00734)
Method: aptamer microarray, sandwich
Form: DNA with 2'F-ANA
Medium: in vitro
Tested at: 200 nM
Notes: whole 15-mer aptamer, many near background
Together with: Cy3 exosite-II aptamer, 400 nM
Direction: higher = stronger binding
Quantity: mean fluorescence intensity
Oligonucleotide: GGTTGGTGTGGTTGG
2'F-ANA at 1 2 4 6 7 8 11 13: 87.4 a.u.
2'F-ANA at 1 3 4 6 7 11 13 14 15: 63.7 a.u.
2'F-ANA at 4 6 8 11 14 15: 79.4 a.u.
2'F-ANA at 5 7 10 12 13: 45.7 a.u.
2'F-ANA at 1 2 3 4 5 6 9 10 12 13 15: 53.7 a.u.
2'F-ANA at 3 5 6 8 9 10 11 12 13 15: 118 a.u.
2'F-ANA at 2 3 7 8 9 10 12 13 14 15: 289 a.u.
2'F-ANA at 3 5 7 9 10 12: 71.8 a.u.
2'F-ANA at 3 4 5 6 7 8 9 11 14: 174 a.u.
2'F-ANA at 1 3 4 5 6 7 8 9 11 14 15: 57.2 a.u.
2'F-ANA at 4 6 8 10 15: 74.6 a.u.
2'F-ANA at 2 4 6 10 11 12 13 15: 80.8 a.u.
2'F-ANA at 4 6 8 12 14 15: 124 a.u.
2'F-ANA at 3 5 6 10 12 13: 60.2 a.u.
2'F-ANA at 1 3 7 8 9: 354 a.u.
2'F-ANA at 3 6 7 10 11 13 15: 459 a.u.
2'F-ANA at 5 6 8 10 11 12 15: 142 a.u.
2'F-ANA at 1 2 3 11 14: 71.3 a.u.
2'F-ANA at 2 3 4 6 8 9 13 15: 405 a.u.
2'F-ANA at 4 5 9 15: 66 a.u.
2'F-ANA at 1 7 8 9 13 15: 185 a.u.
2'F-ANA at 1 3 6 7 12 13 15: 438 a.u.
2'F-ANA at 1 4 6 7 8 10 11 14: 51.7 a.u.
2'F-ANA at 2 3 4 5 6 10 11: 50.1 a.u.
2'F-ANA at 1 3 4 6 7 9 10 12 14 15: 52.8 a.u.

For quick reference, copied from above (series 1):
CGGAGACG: 0.294
ATATATAA: -0.157
CTCCCGTC: 0.265
TTGATCAA: 0.0381
ATCCCAGG: -0.212
AACGAAAA: -0.127
CGGAGACC: 0.28
GCAAAGCC: 0.15
GATTTCAA: -0.0478
CCACGACC: -0.154
CCACCTGG: -0.243
TCTAAACA: -0.0727
